Published values pooled from the literature.
“And” joins repeats or separate records; there may be more than shown. Numbers after ± are the reported error. ≈ marks a conversion by molar mass, not a printed value.
Sequence of UniProt P10635 (whole entry, looked up): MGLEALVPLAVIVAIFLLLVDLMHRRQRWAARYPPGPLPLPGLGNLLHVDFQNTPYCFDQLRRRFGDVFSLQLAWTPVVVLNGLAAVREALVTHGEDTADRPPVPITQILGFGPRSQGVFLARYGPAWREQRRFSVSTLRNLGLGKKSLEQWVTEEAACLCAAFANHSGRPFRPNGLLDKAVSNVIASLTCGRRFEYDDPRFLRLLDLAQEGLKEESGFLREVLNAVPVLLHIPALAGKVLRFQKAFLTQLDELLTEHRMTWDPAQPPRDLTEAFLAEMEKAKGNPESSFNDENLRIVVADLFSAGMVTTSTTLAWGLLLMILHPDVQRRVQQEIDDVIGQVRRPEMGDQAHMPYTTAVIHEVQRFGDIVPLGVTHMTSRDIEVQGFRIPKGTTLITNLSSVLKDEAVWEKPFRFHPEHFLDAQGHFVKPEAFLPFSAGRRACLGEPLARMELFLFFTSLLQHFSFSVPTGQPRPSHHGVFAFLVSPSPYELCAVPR

The tumour-to-organ ratio of N#C[C@@H]1CCCN1C(=O)CNC(=O)c1ccnc2ccc(OCCCN3CCN(C(=O)CCc4ccc5c(c4)CN4CCN6CC(=O)[O][68Ga-]([O]C(=O)C4)([O]5)[O]c4ccc(CCC(=O)N5CCN(CCCOc7ccc8nccc(C(=O)NCC(=O)N9CCC[C@H]9C#N)c8c7)CC5)cc4C6)CC3)cc12 is reported as 16.6 ± 4.48 (BALB/c nude mice, U-87 MG tumour; 120 min post-injection; relative to: tumour over muscle).
Under “intact radiolabelled complex”, O=C([O-])CN1CCN(CC(=O)[O-])CCN(CC(CCCc2ccccc2[N+](=O)[O-])N(CC(=O)[O-])CC(=O)[O-])CC1.[177Lu+3] (stereo not shown) is recorded as 100% (HPLC; human serum; 279 h, pH 7, 37 °C).
For CN(Cc1ccccc1)C(=O)CN1CCN(CC(=O)[O-])CCN(CC(=O)[O-])CC1.[18F-].[Sc+3], the tracer uptake was 0.17 %ID/g (mouse, spleen; intravenous, 1 h).
With CN(O)C(=O)CCC(=O)NCCCN(CCCCN(CCCNC(=O)CCC(=O)N(C)O)C(=O)CCC(=O)N(C)O)C(=O)CCC(=O)N(C)O.[89Zr] the intact complex was 99.6 ± 0.4% (radio-TLC; aqueous buffer; 7 d, pH 7.2, 37 °C, 89Zr-labelled complex, together with: CuCl2 10-fold excess).
[Mn+2].[O-][Cl+3]([O-])([O-])[O-].[O-][Cl+3]([O-])([O-])[O-].c1ccc(CN2Cc3cccc(n3)CN(Cc3ccccn3)Cc3cccc(n3)C2)nc1 — result for “Mn(II)/Mn(III) half-wave potential”: 0.898 V (differential pulse voltammetry; relative to: Ag/AgCl).
CC[C@H](C)[C@@H](C(=O)N[C@@H](CC(C)C)C(=O)N[C@@H](CO)C(=O)N[C@@H](CO)C(=O)N[C@H](C(=O)N[C@@H](CC(N)=O)C(=O)N[C@H](C(=O)NCC(=O)N[C@@H](CO)C(=O)N[C@@H](CC(N)=O)C(=O)N[C@H](C(=O)N1CCC[C@H]1C(N)=O)[C@@H](C)O)C(C)C)[C@@H](C)O)N(C)C(=O)[C@H](C)NC(=O)CN(C)C(=O)[C@H](Cc1ccccc1)NC(=O)[C@H](CC(N)=O)NC(=O)[C@H](CC(N)=O)NC(=O)[C@H](CO)NC(=O)[C@H](CO)NC(=O)[C@H](Cc1c[nH]cn1)NC(=O)[C@H](Cc1c[nH]cn1)NC(=O)[C@H](CC(C)C)NC(=O)[C@H](Cc1ccccc1)NC(=O)[C@H](CCC(=O)O)NC(=O)[C@H](C)NC(=O)[C@H](CC(C)C)NC(=O)[C@H](CCCNC(=N)N)NC(=O)[C@H](CCC(N)=O)NC(=O)[C@@H](NC(=O)[C@H](C)NC(=O)[C@@H]1CSSC[C@H](NC(=O)[C@H](CCCNC(=N)N)NC(=O)CC[C@H](NC(=O)CCCCCCCCCCCCCCCCCCC(=O)O)C(=O)O)C(=O)N[C@@H](CC(N)=O)C(=O)N[C@@H]([C@@H](C)O)C(=O)N[C@@H](C)C(=O)N[C@@H]([C@@H](C)O)C(=O)N1)[C@@H](C)O: “main peak area remaining” 64% (RP-HPLC; water; 1.0 mg/mL, 7 days, pH 7.5, 40 °C).
For Cc1ncsc1-c1ccc(CNC(=O)[C@@H]2C[C@@H](O)CN2C(=O)[C@@H](NC(=O)COCC(C)(COCCOCCOCCNC(=O)C[C@@H]2N=C(c3ccc(Cl)cc3)c3c(sc(C)c3C)-n3c(C)nnc32)COCCOCCOCCNC(=O)C[C@@H]2N=C(c3ccc(Cl)cc3)c3c(sc(C)c3C)-n3c(C)nnc32)C(C)(C)C)cc1, the concentration was 1960 ng/mL (male C57BL/6 mouse, plasma; subcutaneous, 5 mg/kg, 8 h, single dose).
For C=CC(=O)N1CC2C(=O)N(CCN(C)C)c3c(c4cc(Cl)c(-c5c(O)cccc5F)nc4n(-c4c(C)ccnc4C(C)C)c3=O)N2CC1C (stereo not shown), the concentration was 1.06 ng/mL (mouse, CSF; oral, 30 mg/kg, 4 h).
With Nc1nc(-c2ccccc2)nc2[nH]nc(Nc3ccccc3F)c12 the CC50 was over 156 µM (HeLa Ohio; 72 h).
For O=C(Nc1cnccc1-c1ccc([18F])cc1)c1ccnc(NC(=O)C2CC2)c1, the SUV was 1.11 (FVB/NJ mice (both sexes), bone; intravenous, dose not given, 120 min).
For COc1cccc(OC)c1-c1cc(C(=O)NC2(C(=O)O)C3CC4CC(C3)CC2C4)nn1-c1ccc(C(=O)N(C)CCOCCOCCN(C)C(=O)[C@H](CCCCNC(=O)[C@H](CC(C)C)NC(=O)C2OC2C(=O)O)NC(=O)CN2CCN(CC(=O)[O-])CCN(CC(=O)[O-])CCN(CC(=O)[O-])CC2)cc1C(C)C.[177Lu+3] (mixture of isomers), the tumour-to-muscle ratio was 12.8 (mouse, HT-29 xenograft; 72 h post injection, biodistribution; relative to: tumour over muscle uptake).
The AUC(0-24 h) of C[C@]12C[C@H](c3ccc(S(C)(=O)=O)cc3)C3=C4CC[C@@H](O)C=C4CC[C@H]3[C@@H]1CC[C@@]2(O)C(F)(F)C(F)(F)F is reported as 97.8 ng·h/mL (human, plasma; oral, 5 mg multiple doses, day 28).
The concentration of [2H]C([2H])(N)C([2H])([2H])NC(=O)c1cc(C2CC2)nc2c1cnn2C(C)C is reported as 2250 ng/mL (female BALB/c mouse, plasma; intraperitoneal, 50 mg/kg, 15 min).
CN1CCCNC(=O)c2cccc(c2)C(=O)NCCCN(C)CCCNc2cccc3c2C(=O)c2cccc(c2C3=O)NCCC1 has a BUN of 24.8 mg/dL (mice, serum; dose not given).
For CC(C)OCCOCc1ccc(OCC(O)CN(N=O)C(C)C)cc1 (stereo not shown), “revertant fold increase” read 1.2 fold (Escherichia coli; Ames test; WP2 uvrA; 15.8 µg/plate, 30 % hamster S9; relative to: solvent control).
The intact compound of COc1ccc2c(c1)C(C)(C)C(/C=C/C1=C(Oc3ccc(C(=O)NCCCCOc4cc(CN(Cc5ccccn5)Cc5ccccn5)cc(CN(Cc5ccccn5)Cc5ccccn5)c4)cc3)C(=C/C=C3/N(CCCCS(=O)(=O)[O-])c4ccc(OC)cc4C3(C)C)CCC1)=[N+]2CCCCS(=O)(=O)[O-].O=[N+]([O-])[O-].O=[N+]([O-])[O-].[99Tc+].[C-]#[O+].[C-]#[O+].[C-]#[O+].[Zn+2] is reported as 98.7% (radio-TLC; formulation buffer; 0 h, room temperature).
Cc1n[nH]c(C)c1CCCOc1cc(C(=O)NCCCCC(NC(=O)CN2CCN(CC(=O)[O-])CCN(CC(=O)[O-])CCN(CC(=O)[O-])CC2)C(=O)NCC2CCC(C(=O)NC(Cc3ccc4ccccc4c3)C(=O)NCCCCC(NC(=O)NC(CCC(=O)O)C(=O)O)C(=O)O)CC2)ccc1F.[177Lu+3] (stereo not shown) has an elimination half-life of 1.24 h (BALB/c mouse, blood; intravenous).
COC1CN([C@H]2CC[C@H]([C@@]3(C)Oc4c(Cl)cc(C(=O)NCc5c(SC)cc(C)[nH]c5=O)c(C)c4O3)CC2)C1 — result for “log2 fold change”: 0.794 (RNA-seq, refers to: ARPP21 mouse homolog; mouse, HT-1376 xenograft, whole blood; dose not given; relative to: vehicle).
For C/C(N)=N/C(=N\S(=O)(=O)c1ccc(C(F)(F)F)cc1)N1C[C@H](c2ccccc2)C(c2ccc(Cl)cc2)=N1, the AUC(0-inf) was 26500 ng·h/mL (C57BL/6 mouse, heart; intravenous, 10 mg/kg, observed value).
For COC(=O)[C@@]1(C(C)C)C=C(C(=O)Nc2cccc(C(=O)Nc3ccc(Nc4nccc(-c5cccnc5)n4)c(C)c3)c2)C(=O)CC1, the compound remaining was 88.7% and 91.6% (rat, blood plasma; 1 µM, 60 min).
CCCCN1C(=O)c2cccc3c(NCCCCCCCCN4CCOCC4)ccc(c23)C1=O: “fluorescence quantum yield” 1.09 (1,4-dioxane).
For Cc1nn(-c2nc3c(F)cc(F)cc3s2)c(O)c1C(c1ccc(C(F)(F)F)cc1)c1c(C)nn(-c2nc3c(F)cc(F)cc3s2)c1O, “elimination rate constant” read 0.134 h⁻¹ and 0.0772 h⁻¹ and 0.103 h⁻¹ (ICR mouse, plasma; intraperitoneal, 10 mg/kg).
For Cc1ncsc1-c1ccc(C(C)NC(=O)C2CC(O)CN2C(=O)C(NC(=O)CCCCCCCCCCN2CCCC(Nc3ncc(Cl)c(Nc4ccccc4S(=O)(=O)C(C)C)n3)C2)C(C)(C)C)cc1 (stereo not shown), “log2 fold change” read -2.73 (22Rv1; RNA-seq, refers to: SGPP2 mRNA; concentration not given; relative to: DMSO).
O=c1c2ccccc2[se]n1CCCCCCn1[se]c2ccccc2c1=O gave a solubility of 1.3 ± 0.47 µg/mL (≈ 2.72 µM) (shake-flask, RP-HPLC; sodium acetate buffer; 24 h, pH 4.5, 25 °C).
O=C([O-])CN1CCN(CC(=O)[O-])CCN(Cc2cccc(C(=O)[O-])n2)CC1.[18F-].[Sc+3] has a tracer uptake of 0.25 %ID/g (mouse, lung; intravenous, 1 h).
With COc1ccc(Nc2n[nH]c3nc(-c4ccccc4)nc(N)c23)cc1OC the CC50 was 76.4 µM (HeLa Ohio; 72 h).
COc1cccc(OC)c1-c1cc(C(=O)NC2(C(=O)O)C3CC4CC(C3)CC2C4)nn1-c1ccc(C(=O)N(C)CCCN(C)C(=O)[C@H](CCCCNC(=O)[C@H](CC(C)C)NC(=O)C2OC2C(=O)O)NC(=O)CN2CCN(CC(=O)[O-])CCN(CC(=O)[O-])CCN(CC(=O)[O-])CC2)cc1C(C)C.[177Lu+3] (mixture of isomers) has a renal retention of 12 ± 8% (HT-29 xenograft mouse, kidney; 168 h; relative to: initial uptake).
For CCN(CC)CC#CCNc1ccnc2cc(Cl)ccc12, the mean revertants was 21 revertants/well (Salmonella typhimurium; mini-Ames test; TA100; 250.0 µg/well, with rat liver S9).
C=CC(=O)Nc1cc(Nc2nccc(-c3cn(C)c4ccccc34)n2)c(OC)cc1N(C)CCNC gave a recovery of 50.6% (storage stability; human dried blood spot; 30 d, on ice, LLOQ level).
With CC[C@H](C)[C@@H]1NC(=O)[C@H](Cc2ccc(O)cc2)NC(=O)CCCSC[C@@H](C(=O)N(CC(=O)N[C@@H](CC(C)C)C(=O)NCC(N)=O)Cc2ccc(F)cc2)NC(=O)[C@H](CC(N)=O)NC(=O)[C@H](CCC(N)=O)NC1=O the Cmax was 0.044 ng/mL (healthy human, plasma; intranasal, 50 µg every 3 h, after second dose).
The intact complex of CN([O-])C(=O)CN1CCN(CC(=O)N(C)[O-])CCN(Cc2ccccn2)CC1.[89Zr+4] is reported as 86.3% (radio-TLC; human serum; 7 days, run 3).
With COc1cccc(OC)c1-c1cc(C(=O)NC2(C(=O)O)C3CC4CC(C3)CC2C4)nn1-c1ccc(C(=O)N(C)CCCN(C)CCCN(C)C(=O)[C@H](CCCCNC(=O)[C@H](CC(C)C)NC(=O)C2OC2C(=O)O)NC(=O)CN2CCN(CC(=O)[O-])CCN(CC(=O)[O-])CCN(CC(=O)[O-])CC2)cc1C(C)C.[177Lu+3] (mixture of isomers) the tissue uptake was 0.5 %ID/g (mouse HT-29 xenograft, large intestine; 24 h post injection, biodistribution).
O=C(CCCCCCCCCCCCCCCCC(=O)Oc1c2n(cc(C(=O)NCc3c(F)cc(F)cc3F)c1=O)CC1OC3CCC(C3)N1C2=O)Oc1c2n(cc(C(=O)NCc3c(F)cc(F)cc3F)c1=O)CC1OC3CCC(C3)N1C2=O (stereo not shown) has a prodrug hydrolysed of 45% (human plasma; 1 µM, 24 h, 1% methanol).
CNC(=O)C1CCCN(C(=O)C2CC3CCC2N3C(=O)[C@@H]2C[C@@H](O)CN2C(=O)NCc2cccc(Cl)c2F)C1 (mixture of isomers) has a remaining activity of 102% (Cytochrome P450 2D6 (CYP2D6, Homo sapiens, UniProt P10635); enzyme activity, inhibitor, time-dependent inhibition; 16.7 µM, preincubated without NADPH; relative to: negative control).
With O=C(Nc1cnccc1-c1ccc([18F])nc1)c1ccnc(NC(=O)C2CC2)c1 the SUV was 0.022 (FVB/NJ mice (both sexes), hippocampus; intravenous, dose not given, 120 min).
For CN(Cc1ccccc1)C(=O)CN1CCN(CC(=O)[O-])CCN(Cc2cccc(C(=O)[O-])n2)CC1.[18F-].[Sc+3], the tracer uptake was 0.04 %ID/g (mouse, muscle; intravenous, 1 h).
Cc1ccc(CN2C(=O)/C(=N\c3ccc(Cl)cc3Br)c3ccccc32)cc1 gave an MCHC of 329 ± 13.4 g/L (mouse, blood; 200 mg/kg).

Repeated from above:
For COC(=O)[C@@]1(C(C)C)C=C(C(=O)Nc2cccc(C(=O)Nc3ccc(Nc4nccc(-c5cccnc5)n4)c(C)c3)c2)C(=O)CC1, the compound remaining was 88.7% and 91.6% (rat, blood plasma; 1 µM, 60 min).
CCCCN1C(=O)c2cccc3c(NCCCCCCCCN4CCOCC4)ccc(c23)C1=O: “fluorescence quantum yield” 1.09 (1,4-dioxane).
For Cc1nn(-c2nc3c(F)cc(F)cc3s2)c(O)c1C(c1ccc(C(F)(F)F)cc1)c1c(C)nn(-c2nc3c(F)cc(F)cc3s2)c1O, “elimination rate constant” read 0.134 h⁻¹ and 0.0772 h⁻¹ and 0.103 h⁻¹ (ICR mouse, plasma; intraperitoneal, 10 mg/kg).
For Cc1ncsc1-c1ccc(C(C)NC(=O)C2CC(O)CN2C(=O)C(NC(=O)CCCCCCCCCCN2CCCC(Nc3ncc(Cl)c(Nc4ccccc4S(=O)(=O)C(C)C)n3)C2)C(C)(C)C)cc1 (stereo not shown), “log2 fold change” read -2.73 (22Rv1; RNA-seq, refers to: SGPP2 mRNA; concentration not given; relative to: DMSO).
